Measured values of several laboratories.
Compare with care: the assays were run in different laboratories. ± marks the error that the study gave.
CYP2B6: Cytochrome P450 2B6 (CYP2B6, Homo sapiens, UniProt P20813)
Chain of UniProt P20813 (whole entry, looked up): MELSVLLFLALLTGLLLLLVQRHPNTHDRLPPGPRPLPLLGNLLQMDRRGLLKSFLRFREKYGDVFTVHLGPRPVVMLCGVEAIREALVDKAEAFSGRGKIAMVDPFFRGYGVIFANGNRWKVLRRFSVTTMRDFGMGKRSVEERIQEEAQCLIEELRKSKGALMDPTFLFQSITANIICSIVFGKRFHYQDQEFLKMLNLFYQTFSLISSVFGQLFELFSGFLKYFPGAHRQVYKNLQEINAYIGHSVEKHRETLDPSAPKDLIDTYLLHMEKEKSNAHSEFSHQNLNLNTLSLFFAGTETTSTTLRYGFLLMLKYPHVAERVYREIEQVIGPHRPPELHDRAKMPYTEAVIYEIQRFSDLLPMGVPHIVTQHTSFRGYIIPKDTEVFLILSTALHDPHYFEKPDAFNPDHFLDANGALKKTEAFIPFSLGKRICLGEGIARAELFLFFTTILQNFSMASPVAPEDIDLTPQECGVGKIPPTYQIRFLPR
SLC22A1: Solute carrier family 22 member 1 (SLC22A1, Homo sapiens, UniProt O15245)
Chain of UniProt O15245 (whole entry, looked up): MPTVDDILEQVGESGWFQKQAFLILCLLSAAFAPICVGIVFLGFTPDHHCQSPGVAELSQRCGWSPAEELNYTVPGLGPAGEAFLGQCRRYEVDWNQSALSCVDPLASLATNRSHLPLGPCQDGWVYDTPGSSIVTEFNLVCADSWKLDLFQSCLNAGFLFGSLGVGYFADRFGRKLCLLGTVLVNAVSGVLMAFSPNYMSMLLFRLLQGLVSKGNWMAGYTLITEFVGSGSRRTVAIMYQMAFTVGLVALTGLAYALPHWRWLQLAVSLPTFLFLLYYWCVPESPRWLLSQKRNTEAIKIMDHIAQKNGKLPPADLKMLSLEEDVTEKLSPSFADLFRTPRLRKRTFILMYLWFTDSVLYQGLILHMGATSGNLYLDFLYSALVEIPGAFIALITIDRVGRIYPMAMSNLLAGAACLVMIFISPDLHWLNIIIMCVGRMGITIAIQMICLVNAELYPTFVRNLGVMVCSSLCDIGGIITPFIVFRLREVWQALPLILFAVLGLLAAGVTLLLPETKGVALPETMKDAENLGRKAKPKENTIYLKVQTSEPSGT
AHR: Aryl hydrocarbon receptor (AHR, Homo sapiens, UniProt P35869)
Chain of UniProt P35869 (whole entry, looked up): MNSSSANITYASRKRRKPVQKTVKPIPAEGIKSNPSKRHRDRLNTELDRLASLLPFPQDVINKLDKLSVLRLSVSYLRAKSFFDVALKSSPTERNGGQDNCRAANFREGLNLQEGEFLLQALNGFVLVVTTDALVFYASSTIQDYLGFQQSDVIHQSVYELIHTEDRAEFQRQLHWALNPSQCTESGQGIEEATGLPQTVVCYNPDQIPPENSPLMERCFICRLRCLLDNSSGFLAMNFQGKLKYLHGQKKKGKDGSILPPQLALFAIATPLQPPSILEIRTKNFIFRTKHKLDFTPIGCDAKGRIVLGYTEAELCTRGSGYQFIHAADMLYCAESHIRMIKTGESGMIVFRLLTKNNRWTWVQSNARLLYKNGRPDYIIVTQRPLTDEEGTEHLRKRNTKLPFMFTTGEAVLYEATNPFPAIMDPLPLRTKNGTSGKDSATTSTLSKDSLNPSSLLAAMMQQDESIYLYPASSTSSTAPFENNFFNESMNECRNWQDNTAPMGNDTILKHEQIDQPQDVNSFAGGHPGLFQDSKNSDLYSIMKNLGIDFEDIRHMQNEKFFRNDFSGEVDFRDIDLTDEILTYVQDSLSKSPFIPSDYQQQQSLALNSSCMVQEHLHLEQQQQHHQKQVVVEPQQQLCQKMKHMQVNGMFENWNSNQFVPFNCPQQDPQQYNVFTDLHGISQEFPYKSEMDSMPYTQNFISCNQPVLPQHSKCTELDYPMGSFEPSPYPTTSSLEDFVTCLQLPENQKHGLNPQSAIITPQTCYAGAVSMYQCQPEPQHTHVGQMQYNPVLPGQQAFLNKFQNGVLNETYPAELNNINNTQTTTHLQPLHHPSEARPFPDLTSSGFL
CYP2E1: Cytochrome P450 2E1 (CYP2E1, Homo sapiens, UniProt P05181)
Chain of UniProt P05181 (whole entry, looked up): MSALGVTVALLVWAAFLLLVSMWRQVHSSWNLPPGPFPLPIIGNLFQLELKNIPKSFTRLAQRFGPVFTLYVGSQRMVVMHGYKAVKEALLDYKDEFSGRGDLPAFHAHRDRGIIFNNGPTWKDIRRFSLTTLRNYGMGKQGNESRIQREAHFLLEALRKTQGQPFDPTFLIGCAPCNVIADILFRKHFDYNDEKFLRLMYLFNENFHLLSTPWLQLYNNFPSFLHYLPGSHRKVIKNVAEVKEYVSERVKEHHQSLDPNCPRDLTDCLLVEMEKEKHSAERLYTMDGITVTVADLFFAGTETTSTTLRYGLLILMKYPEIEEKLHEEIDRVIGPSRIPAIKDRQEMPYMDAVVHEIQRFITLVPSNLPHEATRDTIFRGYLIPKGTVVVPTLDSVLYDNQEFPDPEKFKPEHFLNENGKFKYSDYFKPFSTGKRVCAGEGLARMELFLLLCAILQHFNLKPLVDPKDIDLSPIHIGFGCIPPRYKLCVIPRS
Chain of UniProt P02769 (whole entry, looked up): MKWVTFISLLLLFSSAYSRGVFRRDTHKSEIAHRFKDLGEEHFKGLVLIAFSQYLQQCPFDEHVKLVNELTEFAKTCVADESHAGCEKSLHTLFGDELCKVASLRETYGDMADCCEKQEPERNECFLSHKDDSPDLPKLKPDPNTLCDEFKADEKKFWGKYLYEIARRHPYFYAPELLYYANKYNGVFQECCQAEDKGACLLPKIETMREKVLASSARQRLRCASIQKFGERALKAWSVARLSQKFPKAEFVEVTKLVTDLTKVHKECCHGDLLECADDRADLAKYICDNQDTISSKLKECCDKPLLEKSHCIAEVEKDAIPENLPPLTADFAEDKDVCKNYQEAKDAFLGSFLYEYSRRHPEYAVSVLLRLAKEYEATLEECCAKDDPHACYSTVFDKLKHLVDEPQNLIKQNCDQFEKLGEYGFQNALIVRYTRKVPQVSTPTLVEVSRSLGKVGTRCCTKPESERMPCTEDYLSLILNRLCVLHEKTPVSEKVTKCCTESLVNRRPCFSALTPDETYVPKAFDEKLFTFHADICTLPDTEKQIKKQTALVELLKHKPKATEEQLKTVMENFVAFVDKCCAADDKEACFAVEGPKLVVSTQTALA
Chain of UniProt Q9Y6L6 (whole entry, looked up): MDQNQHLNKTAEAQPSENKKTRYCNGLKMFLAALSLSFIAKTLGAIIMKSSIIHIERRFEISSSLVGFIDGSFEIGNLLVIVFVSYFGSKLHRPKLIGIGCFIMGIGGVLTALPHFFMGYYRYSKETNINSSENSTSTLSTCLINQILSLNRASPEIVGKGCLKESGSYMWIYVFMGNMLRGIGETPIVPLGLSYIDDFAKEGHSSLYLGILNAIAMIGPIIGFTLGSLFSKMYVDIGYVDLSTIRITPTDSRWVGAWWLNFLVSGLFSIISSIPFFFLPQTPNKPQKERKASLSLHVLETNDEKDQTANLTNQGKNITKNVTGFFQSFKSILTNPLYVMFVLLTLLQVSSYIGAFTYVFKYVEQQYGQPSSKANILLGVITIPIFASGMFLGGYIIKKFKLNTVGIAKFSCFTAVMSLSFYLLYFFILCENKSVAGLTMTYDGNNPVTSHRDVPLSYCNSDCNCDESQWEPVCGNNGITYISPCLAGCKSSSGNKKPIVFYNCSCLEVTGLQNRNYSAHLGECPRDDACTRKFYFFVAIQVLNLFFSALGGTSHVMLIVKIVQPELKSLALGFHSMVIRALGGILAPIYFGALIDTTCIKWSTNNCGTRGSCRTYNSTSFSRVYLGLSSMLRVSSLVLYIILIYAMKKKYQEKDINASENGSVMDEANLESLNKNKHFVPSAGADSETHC
Chain of UniProt P00784 (whole entry, looked up): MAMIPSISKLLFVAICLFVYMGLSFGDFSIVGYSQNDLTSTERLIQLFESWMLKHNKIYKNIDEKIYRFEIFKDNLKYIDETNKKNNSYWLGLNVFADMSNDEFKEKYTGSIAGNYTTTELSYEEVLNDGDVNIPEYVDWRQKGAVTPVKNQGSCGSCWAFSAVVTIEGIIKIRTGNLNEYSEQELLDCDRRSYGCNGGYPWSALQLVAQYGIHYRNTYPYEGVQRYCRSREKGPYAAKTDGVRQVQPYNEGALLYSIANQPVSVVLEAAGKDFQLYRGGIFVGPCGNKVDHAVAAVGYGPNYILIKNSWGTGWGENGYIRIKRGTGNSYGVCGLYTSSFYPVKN

`CC1(C)C(C=C(Cl)Cl)C1C(=O)OC(C#N)c1ccc(F)c(Oc2ccccc2)c1` (stereo not drawn): “enzyme contribution to CLint” 0.31% (human cytosolic CES2; IVIVE from expressed enzymes; human, liver, in vivo scaled; 0.1 µM, age-specific).
For `N#Cc1ccc([C@H]2CCc3cncn32)c(F)c1`, the Ki was 10 µM (CYP2B6; inhibitor).
`CC(C)=CC1C(C(=O)OC(C#N)c2cccc(Oc3ccccc3)c2)C1(C)C` (stereo not drawn) — result for “relative enzyme contribution”: 50.7% (human microsomal CES1; IVIVE from expressed enzymes; human, 5 years old; reference: total hepatic CLint in vivo).
The inhibition of `CCN(CCO)CCCC(C)Nc1ccnc2cc(Cl)ccc12` (stereo not drawn) is reported as 80.2% (SLC22A1; transport, inhibitor; transiently transfected cells; 100 µM, 10 (unit not given), added: metformin).
The tumour uptake of `CCCC[C@H]1C(=O)N(C)[C@@H](CCCC)C(=O)N[C@@H](CCCCNC(=O)CN2CCN(CC(=O)O)CCN(CC(=O)O)CC2)C(=O)N[C@H](C(=O)NCC(N)=O)CSCC(=O)N[C@@H](Cc2ccc(O)cc2)C(=O)N(C)[C@@H](C)C(=O)N[C@@H](CC(N)=O)C(=O)N2CCC[C@H]2C(=O)N[C@@H](Cc2c[nH]cn2)C(=O)N[C@@H](CCC(=O)O)C(=O)N2C[C@H](O)C[C@H]2C(=O)N[C@@H](Cc2c[nH]c3ccccc23)C(=O)N[C@@H](CO)C(=O)N[C@@H](Cc2cn(CC(=O)O)c3ccccc23)C(=O)N1C` [gallium-68 labelled] is reported as 1.17 %ID/g (CD274 (Homo sapiens, UniProt Q9NZQ7); PET; humanised NOG-EXL mice, U-87 MG xenograft; day D5 after antibody, added: anti-PD-L1 antibody 10 mg/kg).
`CC(C)CC(=O)OC[C@H]1O[C@@](C#N)(c2ccc3c(N)ncnn23)[C@H](O)[C@@H]1O`: “Papp B to A” 1.25 ×10⁻⁶ cm/s (ABCB1 (Homo sapiens, UniProt P08183); Caco-2; 0.9 µM, 2 h).
With `COc1ccc2cc1Oc1ccc(cc1)C[C@H]1c3cc(c(OC)cc3CCN1C)Oc1c(OC)c(OC)cc3c1[C@H](C2)N(C)CC3` the inhibition was 69.4% (SLC22A1; transport, inhibitor; 10 µM, added: Metformin).
`COc1cc(-c2[o+]c3cc(O)cc(O)c3cc2O[C@@H]2O[C@H](CO)[C@@H](O)[C@H](O)[C@H]2O)cc(OC)c1O` gave a Kd of 77.7 ± 5.73 µM (Albumin (ALB, Bos taurus, UniProt P02769); fluorescence quenching; pH 7, 40 °C, added: 1 µM BSA).
For `O=C(O)C(F)(F)C(F)(F)C(F)(F)C(F)(F)C(F)(F)C(F)(F)C(F)(F)F`, “linear uptake duration” read 1 min (SLCO1B1 (Homo sapiens, UniProt Q9Y6L6); substrate; CHO stably expressing; 10 µM).
`CC1(C)C(/C=C(\Cl)C(F)(F)F)C1C(=O)OC(C#N)c1cccc(Oc2ccccc2)c1` (stereo not drawn) — result for “relative enzyme contribution”: 62.6% (human microsomal CES1; IVIVE from expressed enzymes; human, 6 months old; reference: total hepatic CLint in vivo).
`Oc1cc(Cl)cc(-c2cccc(Cl)c2)c1` has a maximum activity of 31% (AHR; reporter gene, antagonist; AZ-AHR cells; 25 µM, added: TCDD 4.5 nM; reference: TCDD 4.5 nM).
`CC[C@H](C)[C@H](NC(=O)[C@H](CCCCN)NC(=O)[C@H](CCC(=O)O)NC(=O)[C@H](CCCCN)NC(=O)[C@H](CO)NC(=O)[C@H](CCCCN)NC(=O)[C@H](CCCNC(=N)N)NC(=O)[C@H](Cc1ccccc1)NC(=O)[C@H](Cc1ccccc1)NC(=O)[C@H](CC(=O)O)NC(=O)CNC(=O)[C@H](CC(C)C)NC(=O)[C@@H](N)CC(C)C)C(=O)NCC(=O)N[C@@H](CCCCN)C(=O)N[C@@H](CCC(=O)O)C(=O)N[C@@H](Cc1ccccc1)C(=O)N[C@@H](CCCCN)C(=O)N[C@@H](CCCNC(=N)N)C(=O)N[C@H](C(=O)N[C@H](C(=O)N[C@@H](CCC(N)=O)C(=O)N[C@@H](CCCNC(=N)N)C(=O)N[C@H](C(=O)N[C@@H](CCCCN)C(=O)N[C@@H](CC(=O)O)C(=O)N[C@@H](Cc1ccccc1)C(=O)N[C@@H](CC(C)C)C(=O)N[C@@H](CCCNC(=N)N)C(=O)N[C@@H](CC(N)=O)C(=O)N[C@@H](CC(C)C)C(=O)N[C@H](C(=O)N1CCC[C@H]1C(=O)N[C@@H](CCCNC(=N)N)C(=O)N[C@H](C(=O)N[C@@H](CCC(=O)O)C(=O)N[C@@H](CO)C(=O)O)[C@@H](C)O)C(C)C)[C@@H](C)CC)C(C)C)[C@@H](C)CC`: “remaining intact peptide” 5.53% (human neutrophil elastase; LC-MS; 40 µM, 60 min, pH 7.5, 37 °C; reference: 0 h).
Under “activity at 10 µM”, `COC(=O)c1cccc(C(=O)c2c[nH]c3ccccc23)c1` is recorded as 4% (AHR; reporter gene, agonist, XRE luciferase; HepG2; 10 µM; reference: ITE).
`CC(C)[C@H](C(=O)O[C@H](C#N)c1cccc(Oc2ccccc2)c1)c1ccc(Cl)cc1` — result for “relative enzyme contribution”: 47.8% (human microsomal CES1; IVIVE from expressed enzymes; human, 6 months old; reference: total hepatic CLint in vivo).
For `Clc1cccc(-c2cccc(Cl)c2)c1`, the maximum activity was 50% (AHR; reporter gene, antagonist; AZ-AHR cells; 40 µM, added: TCDD 4.5 nM; reference: TCDD 4.5 nM).
For `CCOC(=O)c1c(CSc2ccccc2)n(C)c2cc(Br)c(O)c(CN(C)C)c12`, the inhibition was 110% (SLC22A1; transport, inhibitor; transiently transfected cells; 100 µM, 10 (unit not given), added: metformin).
For `CC1(C)[C@H](C(=O)OCc2cccc(Oc3ccccc3)c2)[C@@H]1C=C(Cl)Cl`, “enzyme contribution to CLint” read 0.13% (human CYP3A5; IVIVE from expressed enzymes; human, liver, in vivo scaled; 0.1 µM, age-specific).
`S=C=NCCc1ccccc1` has a remaining activity of 1.2% (CYP2E1; enzyme activity, inhibitor; concentration not given, 30 min, pH 7.4).
`CC[C@H]1OC(=O)[C@H](C)[C@@H](O[C@H]2C[C@@](C)(OC)[C@@H](O)[C@H](C)O2)[C@H](C)[C@@H](O[C@@H]2O[C@H](C)C[C@H](N(C)C)[C@H]2O)[C@](C)(O)C[C@@H](C)CN(C)[C@H](C)[C@@H](O)[C@]1(C)O` has an inhibition of -2.8% (SLC22A1; transport, inhibitor; 50 µM, 10 (unit not given), added: metformin).
For `Cc1c(COC(=O)[C@@H]2[C@H](/C=C(\Cl)C(F)(F)F)C2(C)C)cccc1-c1ccccc1` (racemic), “enzyme contribution to CLint” read 1.76% (human CYP3A5; IVIVE from expressed enzymes; human, liver, in vivo scaled; 0.1 µM, age-specific).
For `Clc1ccc(-c2cc(Cl)ccc2Cl)cc1`, the maximum activity was 45% (AHR; reporter gene, antagonist; AZ-AHR cells; 40 µM, added: TCDD 4.5 nM; reference: TCDD 4.5 nM).
For `C=CC1CO1` (stereo not drawn), the IC50 was 110 µM (CYP2E1; enzyme activity, inhibitor; pH 7.4, 37 °C, added: 4-nitrophenol 50 µM).
For `NC(=O)c1ncn([C@@H]2O[C@H](CO)[C@@H](O)[C@H]2O)n1`, the inhibition was -7.7% (SLC22A1; transport, inhibitor; transiently transfected cells; 100 µM, 10 (unit not given), added: metformin).
`Nc1ccccc1` has a remaining activity of 5.5% (CYP2E1; enzyme activity, inhibitor; concentration not given, 30 min, pH 7.4).
For `COc1cccc(N(C)C(=S)Oc2ccc3c(c2)CCCC3)n1`, the maximal inhibition was ~65% (CYP2B6; enzyme activity; 20 min, 2% DMSO).
`CCCCc1nc(Cl)c(CO)n1Cc1ccc(-c2ccccc2-c2nn[nH]n2)cc1` gave an inhibition of 0.0693% (SLC22A1; transport, inhibitor; transiently transfected cells; 100 µM, 10 (unit not given), added: metformin).
`CC[C@H](C)[C@H](NC(=O)[C@H](CCCCN)NC(=O)[C@@H](NC(=O)[C@H](Cc1ccc(O)cc1)NC(=O)[C@H](CCCCN)NC(=O)[C@H](CCCCN)NC(=O)CNC(=O)[C@H](CCCCN)NC(=O)[C@@H](NC(=O)[C@H](C)NC(=O)[C@H](CC(C)C)NC(=O)[C@H](Cc1c[nH]c2ccccc12)NC(=O)CNC(=O)[C@@H](NC(=O)[C@H](Cc1ccccc1)NC(=O)[C@H](CCCCN)NC(=O)[C@H](CC(C)C)NC(=O)[C@H](Cc1ccccc1)NC(=O)[C@H](C)NC(=O)CNC(=O)[C@@H](N)CCSC)C(C)C)[C@@H](C)O)C(C)C)C(=O)N[C@@H](C)C(=O)N[C@@H](Cc1c[nH]c2ccccc12)C(=O)N[C@@H](CC(=O)O)C(=O)N[C@@H](Cc1c[nH]cn1)C(=O)N[C@@H](CCCCN)C(=O)NCC(=O)N[C@H](C(=O)N[C@H](C(=O)N[C@@H](CCSC)C(=O)N[C@@H](CCCCN)C(=O)N[C@@H](Cc1c[nH]c2ccccc12)C(=O)N[C@@H](CC(C)C)C(=O)N[C@@H](CC(N)=O)C(=O)N[C@@H](C)C(=O)NCC(=O)N[C@@H](CCC(N)=O)C(=O)N[C@H](C(=O)N[C@@H](Cc1ccccc1)C(=O)N[C@H](C(=O)N[C@@H](Cc1c[nH]c2ccccc12)C(=O)N[C@H](C(=O)N[C@@H](Cc1ccc(O)cc1)C(=O)N[C@@H](CCC(=O)O)C(=O)N[C@@H](CCC(N)=O)C(=O)N[C@H](C(=O)N[C@@H](CCCCN)C(=O)N[C@@H](CCCCN)C(=O)N[C@@H](CC(C)C)C(=O)N[C@@H](Cc1c[nH]c2ccccc12)C(=O)N[C@H](C(=O)O)[C@@H](C)O)[C@@H](C)CC)C(C)C)[C@@H](C)O)[C@@H](C)O)[C@@H](C)CC)[C@@H](C)O`: “MIC after protease treatment” “no effect” (Papain (Carica papaya, UniProt P00784); Pediococcus damnosus, CECT 4797; 3 h, 37 °C, added: papain 1 mg/mL; reference: untreated).

Excerpt of the above:
`Oc1cc(Cl)cc(-c2cccc(Cl)c2)c1` has a maximum activity of 31% (AHR; reporter gene, antagonist; AZ-AHR cells; 25 µM, added: TCDD 4.5 nM; reference: TCDD 4.5 nM).
`CC[C@H](C)[C@H](NC(=O)[C@H](CCCCN)NC(=O)[C@H](CCC(=O)O)NC(=O)[C@H](CCCCN)NC(=O)[C@H](CO)NC(=O)[C@H](CCCCN)NC(=O)[C@H](CCCNC(=N)N)NC(=O)[C@H](Cc1ccccc1)NC(=O)[C@H](Cc1ccccc1)NC(=O)[C@H](CC(=O)O)NC(=O)CNC(=O)[C@H](CC(C)C)NC(=O)[C@@H](N)CC(C)C)C(=O)NCC(=O)N[C@@H](CCCCN)C(=O)N[C@@H](CCC(=O)O)C(=O)N[C@@H](Cc1ccccc1)C(=O)N[C@@H](CCCCN)C(=O)N[C@@H](CCCNC(=N)N)C(=O)N[C@H](C(=O)N[C@H](C(=O)N[C@@H](CCC(N)=O)C(=O)N[C@@H](CCCNC(=N)N)C(=O)N[C@H](C(=O)N[C@@H](CCCCN)C(=O)N[C@@H](CC(=O)O)C(=O)N[C@@H](Cc1ccccc1)C(=O)N[C@@H](CC(C)C)C(=O)N[C@@H](CCCNC(=N)N)C(=O)N[C@@H](CC(N)=O)C(=O)N[C@@H](CC(C)C)C(=O)N[C@H](C(=O)N1CCC[C@H]1C(=O)N[C@@H](CCCNC(=N)N)C(=O)N[C@H](C(=O)N[C@@H](CCC(=O)O)C(=O)N[C@@H](CO)C(=O)O)[C@@H](C)O)C(C)C)[C@@H](C)CC)C(C)C)[C@@H](C)CC`: “remaining intact peptide” 5.53% (human neutrophil elastase; LC-MS; 40 µM, 60 min, pH 7.5, 37 °C; reference: 0 h).
